# Published values of several laboratories.
# Every numbered part comes from another study and shows a few of its results, in no order. Positions count from the first letter of the parent shown.

# Series 1
# Target: ABI1, truncated, D143A, DHFR fusion (Arabidopsis thaliana)
# Method: DHFR PCA, deep sequencing
# Matrix: yeast
# Notes: methotrexate growth selection, single substitutions
# With: (+)-ABA 0.39 µM
# Relative to: wild-type fitted maximum
# Reading: higher = stronger binding
# Starting sequence: PYL1, truncated, DHFR fusion (Arabidopsis thaliana); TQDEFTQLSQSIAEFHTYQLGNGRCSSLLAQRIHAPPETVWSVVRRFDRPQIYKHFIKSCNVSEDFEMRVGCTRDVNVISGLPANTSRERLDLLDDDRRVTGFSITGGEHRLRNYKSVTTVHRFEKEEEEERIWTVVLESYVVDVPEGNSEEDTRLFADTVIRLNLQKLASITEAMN; partner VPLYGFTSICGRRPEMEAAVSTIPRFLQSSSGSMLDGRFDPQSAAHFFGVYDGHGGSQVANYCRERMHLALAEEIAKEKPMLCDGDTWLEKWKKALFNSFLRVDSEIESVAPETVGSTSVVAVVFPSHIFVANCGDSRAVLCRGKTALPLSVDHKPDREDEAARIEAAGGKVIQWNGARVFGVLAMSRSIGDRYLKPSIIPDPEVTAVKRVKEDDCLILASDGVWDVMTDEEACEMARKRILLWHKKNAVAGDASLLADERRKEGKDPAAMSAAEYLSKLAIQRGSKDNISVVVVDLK
Variant,relative binding score [%]
R123W,-6.85
F66W,31.6
V78W,81.1
S63I,19.9
G107L,-5.29
R46Q,56.6
G71Q,-6.02
K58P,-2.69
F15Y,40.1
H110M,24.4

# Series 2
# Molecule: PhoQ, residues 284 288 289 292 302 303 SASVAL
# Method: Sort-seq
# Item: YFP reporter
# Matrix: E. coli
# Notes: PhoQ-PhoP variant library
# With: 10 µM Mg2+
# Relative to: high Mg2+ state
# Reading: higher = stronger signaling
target,fold induction
"PhoP, residues 12 14 15 18 19 LHHYF (Escherichia coli, UniProt P23836)",11.3
"PhoP, residues 12 14 15 18 19 NFFVT (Escherichia coli, UniProt P23836)",12.6
"PhoP, residues 12 14 15 18 19 VGHWL (Escherichia coli, UniProt P23836)",8.99
"PhoP, residues 12 14 15 18 19 TPWTL (Escherichia coli, UniProt P23836)",0.818

# Series 3
# Target: Histone acetyltransferase KAT6A, winged helix 1, GST fusion (KAT6A, Homo sapiens, UniProt Q92794, residues 1-85)
# Method: protein binding microarray
# Form: double-stranded DNA, one strand shown
# Matrix: in vitro
# Tested at: not given
# Notes: 8-mer, flanks averaged, mean of 2 arrays, mostly near background
# Relative to: not given
# Reading: higher = stronger binding
# Construct (chain): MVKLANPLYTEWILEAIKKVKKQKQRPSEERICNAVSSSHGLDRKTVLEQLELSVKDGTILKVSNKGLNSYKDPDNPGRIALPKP
Strand,E-score
ACAAGCCG,0.323
AAACTATG,-0.176
AGCGCGTC,0.377
GGTTCTTA,-0.0753
GAGCATAA,-0.0184
CAACCCGG,0.217
AACATGAC,-0.000135
GACAGGCC,-0.0466
GTTCAAGA,-0.104
GACACATA,-0.272
AAACGCGT,0.251
ACGATCCG,0.0892
ACAAATGG,0.00282
GAGAAACC,-0.00921
ATCTCGAG,-0.233
TCAAAGGA,-0.0962
CATCAGTC,-0.152
AGATTACA,0.0152
CTTAAGAA,-0.169

# Series 4
# Target: Prothrombin, mature alpha-thrombin (F2, Homo sapiens, UniProt P00734)
# Method: aptamer microarray, sandwich
# Form: DNA with 2'F-ANA
# Matrix: in vitro
# Tested at: 200 nM
# Notes: whole 15-mer aptamer, many near background
# With: Cy3 exosite-II aptamer, 400 nM
# Reading: higher = stronger binding
# Strand: GGTTGGTGTGGTTGG
Modification,mean fluorescence intensity [a.u.]
2'F-ANA at 1 2 3 6 7 8 9 10 11 12 15,88.2
2'F-ANA at 1 2 6 9 10 11 12 13 14,50.1
2'F-ANA at 2 3 4 9 13,462
2'F-ANA at 1 2 3 4 5 8 10 12 13,54.7
2'F-ANA at 3 5 7 8 14 15,99.2
2'F-ANA at 1 3 4 5 8 10 11 12 13 14 15,49
2'F-ANA at 2 3 6 8 9 10 11 12 13,328
2'F-ANA at 2 5 6 9 10 12 14 15,47
2'F-ANA at 2 7 9 10 11 12 14 15,87.3
2'F-ANA at 1 2 5 9 10 14,132
2'F-ANA at 1 2 3 5 6 7 10 11 12 13,78.7
2'F-ANA at 1 3 4 5 6 8 10 12 13 14,46.6
2'F-ANA at 10 11 12 14,109
2'F-ANA at 2 3 5 6 7 8 15,133
2'F-ANA at 1 2 3 5 6 7 8 10 12 14,259
2'F-ANA at 1 2 3 4 5 6 7 9 10 11 12 15,49.6
2'F-ANA at 1 2 4 6 8 10 13,55.1
2'F-ANA at 2 4 5 6 8 9 11 12 13 14,47.2
2'F-ANA at 8 9 13 14 15,149
2'F-ANA at 4 5 6 8 9 10 12 13 15,47.3
2'F-ANA at 1 2 4 5 8 11 12 14 15,43.9
2'F-ANA at 2 3 4 5 6 7 8 10 12 13 14,55.3

# For quick reference, copied from above (series 3):
Strand,E-score
ACGATCCG,0.0892
ACAAATGG,0.00282
GAGAAACC,-0.00921
ATCTCGAG,-0.233
TCAAAGGA,-0.0962
CATCAGTC,-0.152
AGATTACA,0.0152
